Results collected from several papers.
A part holds a random share of what one study measured.

Set 1 — technique: universal PBM; molecule type: double-stranded DNA, one strand shown; medium: in vitro; concentration: not given; reading: higher = stronger binding; quantity: E-score
Target: Sal-like protein 4, full length isoform B (SALL4, Homo sapiens, UniProt Q9UJQ4-2, residues 1-616)
Setting: 8-mer, flanks averaged, mean of replicates
CGCATAGC: -0.127
GCACATGC: -0.146
TGGCCTAA: 0.0424
GGCTGTAC: -0.278
ATATCCGC: 0.158
ACCAGCCC: -0.222
CATACAGG: 0.163
CGAGGGAG: -0.219
ACTCTGGG: -0.12
ATAAATCC: 0.287
AACTGGTA: -0.0842
CCACTACG: -0.215
AATGCTCG: 0.113
CTTGTCAC: -0.0883
ACTTCTGC: -0.0147
ATGCAACG: 0.0265
AAAAAATC: 0.257
CTGGCAGA: -0.125
CCTCCGCA: -0.0412
GTAATGGA: 0.161
CGAAGCTA: 0.0909

Set 2 — technique: protein binding microarray; molecule type: double-stranded DNA, one strand shown; medium: in vitro; concentration: not given; relative to: not given; reading: higher = stronger binding; quantity: E-score
Target: Histone acetyltransferase KAT6A, winged helix 1, GST fusion (KAT6A, Homo sapiens, UniProt Q92794, residues 1-85)
Setting: 8-mer, flanks averaged, mean of 2 arrays, mostly near background
Target sequence (chain): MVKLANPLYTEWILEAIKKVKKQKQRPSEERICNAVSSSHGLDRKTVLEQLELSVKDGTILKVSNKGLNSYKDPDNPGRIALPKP
CCCTGCAA: -0.0983
AGTAGAGC: -0.0855
CATGTACG: -0.0291
AGTAGGAT: -0.128
AATTGGCA: -0.145
CACGCTAC: 0.0871
TCACGTAA: -0.0182
AATAAAGC: -0.0735
ACCCGAGT: 0.151
ACCTCTGC: -0.0701
CAGACGCG: 0.311
CAGTTCGC: 0.0133
CGGGAACG: 0.421
GAGCCAAA: -0.136
ACCGATCT: 0.104
GAGGCTAA: -0.137
GGAAGTCA: 0.0692
AACATCAG: -0.221
ACGCAAGG: -0.131
AAAAGAAG: -0.00092
CATGGACC: -0.0658
TATGGTGA: -0.0642
CACAAAAC: -0.103
CTCAGGGC: -0.0481
AATAGGAA: -0.0507

Set 3 — technique: RNA Bind-n-Seq; molecule type: RNA; medium: in vitro; concentration: 365 nM; relative to: no-protein control; reading: higher = stronger binding; quantity: RBNS enrichment (R)
Target: RNA binding protein fox-1 homolog 2, RRM domain, GST-SBP tag (RBFOX2, Homo sapiens, UniProt O43251-10, residues 100-194)
Setting: natural RNA segment, single round, ends assumed
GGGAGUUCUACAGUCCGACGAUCAAGCAAAUGCAGUAUAUUAAAGGUGAACACCACACUGAAACUCCCAACUCCUGACAGAAUAACCAGGCUCUUGAUUUAGAUCAUGUGGAAGGUGAGAUAUAAAUGUAUAUUGGAAUUCUCGGGUGCCAA: 0.641
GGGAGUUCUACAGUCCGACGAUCGAAUUUCUCAUGUAUACUAUGUUUAAUGGUAGGGUCUCACUGUUAAGGCACAAAUUAUUUCAAAGGAGUUGCUCUAAAAACAGAUUAUUUCCCGGAAAAAAAAAAAUGCAUGGAAUUCUCGGGUGCCAA: 2.37
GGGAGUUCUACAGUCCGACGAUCUUUUUCUUCAAGAGACGCAAUUGCAAUAGUAUUUUUUAGAUUUUAUCCAAGAAGUUUUUUGGGCGAAAAUCUUGGAUCAUUUUUAUGUAGCAUGAUUUUCCUUGGGAUGCUGGAAUUCUCGGGUGCCAA: 1.83
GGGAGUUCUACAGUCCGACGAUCAGUGACUACACUGGUGUCUGACUUUUUUCCUAGAGAUUUCUCCCUGAAAAAUACAAGGGCUGUUGGUGAGAGCAGACUUGAGGUGAUGAUAGUUGGCCUCUGGUCUACAAUGGAAUUCUCGGGUGCCAA: 1.01
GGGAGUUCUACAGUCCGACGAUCCACAAAGGCCCACACUUCCUGACGGAUGCCAGCUUGGGCACUGCUGUCUACUGACCCCAACCCUUGAUGAUAUGUAUUUAUUCAUUUGUUAUUUUACCAGCUAUUUAUUGUGGAAUUCUCGGGUGCCAA: 0.495
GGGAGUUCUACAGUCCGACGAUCCGCCUAGCAUGCAUACGAAGCCUGGAUCCCAUAUCCCAGCAGGGCAAACCAAUUGCCUCAGGCUAUCUGUGUAAGGUGUCUAUGUGAAACCUAAAUGAAUUUCAUGAUUAUGGAAUUCUCGGGUGCCAA: 1.66
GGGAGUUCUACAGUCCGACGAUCAGGUUGGCCGCCUUGAGGAACUAGCCGUGCCCCGCCGGUGUGCACCGCCUCUGCCCCGUGAUGUGCUGGAAGGCUCCUGUCCUCUCCCCACCGCGUCUUGCCUUUGUGCUUGGAAUUCUCGGGUGCCAA: 1.75
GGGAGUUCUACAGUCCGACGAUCCUUAUUCCAAAUCCUGUCUUUUCCCCACUAUUCCAUUAGACCCCACAAAUGUUAGUUGUGUGUGUGUGUGUGUGUGUUUUUAAUCACUGUAACCGGAUGCAUUUUUUUAAUGGAAUUCUCGGGUGCCAA: 0.818
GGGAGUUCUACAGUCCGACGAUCUUGGCCUCCUGCCUGCUGUCAUGUGUCCCCCCUUUUGCUCCCCCUCCCCAUCCUGAUGCUUUCAUGUUGGUUCCUGACACAUGGUCUGGCUUUGGGUUUGAAGGGCAAGGUGGAAUUCUCGGGUGCCAA: 2.51
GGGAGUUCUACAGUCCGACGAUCGUCCUUGGCCGUCUCCCUCAGCUCUGCCUGGGCUCCGAGGGAGAUGGAAGUCCGUCAGGGAACAGGUAGUUCUAAGUGCGUGGCUAAAUGAUUUGGACAAGCUCCUGUGUUGGAAUUCUCGGGUGCCAA: 0.414
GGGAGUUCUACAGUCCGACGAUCCCAAAGACAGUCUCAGAAAGCUGCACUGCCCACCGGCUCAGCUUUCAUUCAAAAAGGCUUCCAAGGCCAAUUCUGUCUUGAAGUCAAUGCAUGUAUUUACUGUUUGACAGUGGAAUUCUCGGGUGCCAA: 6.53
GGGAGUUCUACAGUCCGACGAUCCAGAUACAAUAAAGGCUAUGAGUAUAAAUACAUAACUUCCUAACCAGGUGUAGGGCAUGUUCAUGAAUAUCAAAUCUUUUGAUGCUGGACCCAAGAGAGGAAAAGUUGUAUGGAAUUCUCGGGUGCCAA: 0.765

Set 4 — technique: protein-binding microarray; molecule type: double-stranded DNA, one strand shown; medium: in vitro; concentration: 2200 nM top; setting: 60-bp whole probe; together with: salmon DNA 0.4 mg/ml; relative to: random background probes; reading: higher = stronger binding; quantity: fitted relative affinity; all sequences stand within: GCCTAGCAC … GTCTTGATTCGCTTGACGCTGCTG
Target: Interferon regulatory factor 7, full length, phosphomimetic (IRF7, Homo sapiens, UniProt Q92985, residues 1-503, S471D/S472D/S475D/S476D/S477D/S483D/S484D/S487D)
Construct (chain): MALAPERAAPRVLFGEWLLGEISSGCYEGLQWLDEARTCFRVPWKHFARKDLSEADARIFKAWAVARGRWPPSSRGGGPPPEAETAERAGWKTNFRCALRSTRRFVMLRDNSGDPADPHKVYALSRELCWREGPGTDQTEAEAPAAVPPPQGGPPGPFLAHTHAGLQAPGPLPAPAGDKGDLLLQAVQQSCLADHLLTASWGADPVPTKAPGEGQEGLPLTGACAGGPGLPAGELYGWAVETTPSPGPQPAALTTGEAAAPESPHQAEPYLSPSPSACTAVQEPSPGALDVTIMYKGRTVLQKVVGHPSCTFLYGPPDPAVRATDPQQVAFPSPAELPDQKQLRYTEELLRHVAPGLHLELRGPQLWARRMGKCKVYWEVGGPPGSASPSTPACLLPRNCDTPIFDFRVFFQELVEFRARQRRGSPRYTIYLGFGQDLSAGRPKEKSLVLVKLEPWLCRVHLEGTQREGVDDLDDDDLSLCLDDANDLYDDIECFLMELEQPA
TTAGGTATCGACTTTCGCTTAGTGCTA: 4.31 z-score
CCCTAATTCTGATTGGATAAGTGCTAG: 0.655 z-score
GACGGTATCCTACTGCGGACGTGCTAG: 0.264 z-score
GACGGTTTCGACTATCGGGGCGTGCTA: 3.57 z-score
TTAGATTTCGACTTTCGGTTAGTGCTA: 8.67 z-score
GACGGTATCGGGTATCCGGACGTGCTA: -0.0799 z-score
TCAGGTTCTCTTTTATTACTGTGCTAG: 1.62 z-score
GACGGTATCGACACTGAGGACGTGCTA: -0.147 z-score
TCACACATGCATCTCCCACTGTGCTAG: 1.69 z-score
ACCACTCTTGCTTTTTAGATGTGCTAG: 1.75 z-score
TTAAAACTGGGGTTTCGATTAGTGCTA: 2.55 z-score
CTGTTTCCATCTCTCAAAAGGTGCTAG: 4.78 z-score
ATTCATATATATATGAAAAAGTGCTAG: 0.151 z-score
TTAGATTTCAGTATCGATTAGTGCTAG: 0.797 z-score
GACGGTTTCGTTATCCTGACGTGCTAG: 7.64 z-score
TTAGATTACAGTTTCGATTAGTGCTAG: 5.22 z-score
GACGGTATCGACTATCGGTACGTGCTA: 0.27 z-score
TTAGAACTGAGGTTTCGATTAGTGCTA: 2.56 z-score
TTAGGTTTCGGACTGGGTTCGTGCTAG: 3.32 z-score
GACGGTTTCCTTCGCCTGACGTGCTAG: 1.95 z-score
TCACATTCTGAATTCGAACTGTGCTAG: 2.1 z-score
GAAGATCTCAGTTTCGAGACGTGCTAG: 3.24 z-score
TTATCAATCATTTTCGTTTTGTGCTAG: 11.2 z-score
TTAGGTCTCTTTCTCCTTTAGTGCTAG: 1.44 z-score
TTAGGACCGCTTCTCCTTTAGTGCTAG: 0.673 z-score

Further values, each from its own experiment
PhoQ, residues 284 288 289 292 302 303 ALASRC
fold induction (PhoP, residues 12 14 15 18 19 NHFRA (Escherichia coli, UniProt P23836); Sort-seq, measured: YFP reporter; E. coli; PhoQ-PhoP variant library, together with: 10 µM Mg2+; relative to: high Mg2+ state, higher = stronger signaling): 1.39

Excerpt of the above (set 2):
AATTGGCA: -0.145
CTCAGGGC: -0.0481
CAGACGCG: 0.311
AATAGGAA: -0.0507
ACGCAAGG: -0.131
CATGGACC: -0.0658
GAGCCAAA: -0.136
ACCCGAGT: 0.151
GGAAGTCA: 0.0692
CCCTGCAA: -0.0983
AAAAGAAG: -0.00092
TATGGTGA: -0.0642
